Results from different studies.
± marks the error that the study gave.

Compound | target | assay | test system | conditions | how to read | endpoint | result
COc1ccc(S(=O)(=O)NCc2ccc(CNS(=O)(=O)c3ccc(OC)cc3)cc2)cc1 | CXCR4 | CXCL12-induced cell invasion, Matrigel invasion | MDA-MB-231 | 100 nM (0.1 µM), with: CXCL12 200 ng/mL | relative to: reference compound as 100% | inhibition | 100%
CC(C)S(=O)(=O)N1CCC(NC(=O)NC23CC4CC(CC(C4)O2)C3)CC1 | IL-6, TNF-alpha, CHOP, TRB3 |  | AR-42J | 60 µM, with: cerulein 10 nM | relative to: cerulein alone | mRNA level | decreased
CC(C)(C)OC(=O)NCC[C@@H]1NC(=O)c2coc(n2)-c2coc(n2)-c2cccc(c2)-c2cccc(c2)-c2nc(co2)-c2nc(co2)CNC1=O | salmon testes duplex DNA | UV melting |  | 15 µM, pH 7.5, with: 150 mM K+ | relative to: DNA without compound | melting temperature shift | 0.4 °C
CN(Cc1ccccc1)S(=O)(=O)c1ccc(Cn2cccc2)cc1 | CXCR4 | CXCL12-induced cell invasion, Matrigel invasion | MDA-MB-231 | 10 nM (0.01 µM), with: CXCL12 200 ng/mL | relative to: reference compound as 100% | inhibition | 32%
CC(C)C[C@H](N)C(=O)O | Na+-independent amino acid transport, mouse | inhibitor | Ehrlich ascites cells | 1 min, pH 7.4, Na+-free choline medium, with: methionine |  | Ki | 100 µM
O=S(=O)(O)c1cc(N=C=S)ccc1C=Cc1ccc(N=C=S)cc1S(=O)(=O)O | band 3 anion exchanger, human | chloride exchange efflux | human erythrocytes | concentration not given, reversible plus covalent binding |  | inhibition | 100%
CN(C)CC#Cc1ccc2[nH]c3c(c2c1)-c1nc(N)ncc1CCC3 | voltage-gated sodium channel, rat | whole-cell patch clamp | dissociated rat DRG neurons | 1 µM, peak current, I-V curve |  | sodium current density | -370 ± 46.8 pA/pF
CN(Cc1ccccc1)S(=O)(=O)c1ccc(CN2CCNCC2)cc1 | CXCR4 | CXCL12-induced cell invasion, Matrigel invasion | MDA-MB-231 | 10 nM (0.01 µM), with: CXCL12 200 ng/mL | relative to: reference compound as 100% | inhibition | 78%
CCCCOc1cc(CC2CNC(=O)N2)ccc1OC (stereo not drawn) | phosphodiesterase 4, human | enzyme activity, inhibitor | HEK293 expressing CNG C460W/E583M | with: forskolin 0.5 µM |  | Ki | 0.14 µM
CCN(CC)Cc1ccc(S(=O)(=O)N(C)Cc2ccc(F)cc2)cc1 | CXCR4 | CXCL12-induced cell invasion, Matrigel invasion | MDA-MB-231 | 10 nM (0.01 µM), with: CXCL12 200 ng/mL | relative to: reference compound as 100% | inhibition | 61%
O=C1CNC(=O)c2coc(n2)-c2coc(n2)-c2cccc(c2)-c2cccc(c2)-c2nc(co2)-c2nc(co2)CN1 | salmon testes duplex DNA | UV melting |  | 15 µM, pH 7.5, with: 50 mM K+ | relative to: DNA without compound | melting temperature shift | 0 °C
Nc1nc2c(nc(Br)n2[C@@H]2O[C@@H]3COP(=O)(O)O[C@H]3[C@H]2O)c(=O)[nH]1 | cone cGMP-gated channel | ion current, agonist, inside-out patch clamp |  | after EDTA/EGTA exposure, -40 mV |  | EC50 | 15.5 µM
CC(C)[C@@H]1NC(=O)c2coc(n2)-c2coc(n2)-c2cccc(c2)-c2cccc(c2)-c2nc(co2)-c2nc(co2)CNC1=O | salmon testes duplex DNA | UV melting |  | 15 µM, pH 7.5, with: 50 mM K+ | relative to: DNA without compound | melting temperature shift | 0 °C
Nc1nc2[nH]c(Cc3ccc(C(=O)N[C@@H](CCC(=O)O)C(=O)O)cc3)cc2c(=O)[nH]1 | folate receptor alpha, human |  | RT16 cells | concentration not given, 15 min, 0 °C, with: [3H]folic acid 50 nM | relative to: folic acid, higher = stronger binding | relative binding affinity | < 0.01
CC(C)Cn1c(=O)n(C)c(=O)c2[nH]cnc21 | phosphodiesterase 4, human | enzyme activity, inhibitor | HEK293 expressing CNG C460W/E583M | with: forskolin 0.5 µM |  | Ki | 10 µM
